Results from different studies.
Every numbered part comes from another study and shows a few of its results, in no order. Substitutions count along the parent as printed.

Block 1
Target: RING finger protein unkempt homolog, zinc fingers 1-6, GST-SBP tag (UNK, Homo sapiens, UniProt Q9C0B0, residues 30-357)
Method: RNA Bind-n-Seq
Form: RNA
Matrix: in vitro
Tested at: not given
Notes: RNA with constant flanks, ends assumed
Relative to: input RNA pool
Direction: higher = stronger binding
Target sequence (chain): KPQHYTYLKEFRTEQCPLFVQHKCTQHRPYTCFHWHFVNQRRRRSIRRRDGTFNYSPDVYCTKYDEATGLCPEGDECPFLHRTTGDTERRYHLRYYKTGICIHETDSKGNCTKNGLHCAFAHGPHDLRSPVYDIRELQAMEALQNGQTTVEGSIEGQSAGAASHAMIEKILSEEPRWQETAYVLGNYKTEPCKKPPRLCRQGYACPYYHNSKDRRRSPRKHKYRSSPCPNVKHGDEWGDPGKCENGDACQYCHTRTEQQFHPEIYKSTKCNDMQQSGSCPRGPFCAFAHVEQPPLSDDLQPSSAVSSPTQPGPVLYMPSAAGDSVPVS
Strand | bound/input enrichment [ratio]
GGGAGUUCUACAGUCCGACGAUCGAUCACUUCAUUUCUAAGUGUUUUAAGUGGGGAGCAAAGUACAUGUUAAAAGCAUGUUGCAUCCGAUAUAAAUUCAGUUUUUUAAACUCUUACCAAUGUAAGAACUGCAGAAAUAUUUUUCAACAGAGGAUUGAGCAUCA | 0.144
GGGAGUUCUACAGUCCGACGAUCUUUAUAUUUAACUAAAUGUAAGGUACGAAUUAUUACAUAUUAAACUUUUCUUCCCCUUCCCCGUUCUGAAGUAGAUAUAUAUAUAUAUAUAUCUACUGUCACAUUCCAUAUAUUUUGAAUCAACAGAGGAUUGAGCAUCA | 5.77
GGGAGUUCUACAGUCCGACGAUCACUUGUUCACUGGAUUGUCUGGGAUGACUUGGGCUCAUAUCCACAAUACUUGGUAUAAGGCCGCCGAUUGUUGGGGGUGGGGAGGGAGGGAUCUAGGAUACAGGGCAGGGAUAAAUACAGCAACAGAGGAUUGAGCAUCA | 13.4
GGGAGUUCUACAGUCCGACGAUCCCUGAAUUCUUGGUCUAUUUUCCAUUGCUAAAUGAAAUGGCAAAGAAGUACAAUAUGAAACCCGUCUACAAAAAAACAUUUCUGGAAUUCUACGAAGAAAAGAUUAAGAACAAUGAAAAUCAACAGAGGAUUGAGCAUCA | 0.278
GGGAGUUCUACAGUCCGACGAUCAGACAUGUCCUCACGUACAUGGAGGAUGCAGUGUGCCAGCUGCUGGAGAACAGGGAGGAUAUCCGCCAGUAUGGCAUUGCCCGGUUCUUCACUGACUAUUUUAACAGCGUAUGCCAAGGACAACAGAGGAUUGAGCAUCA | 0.109
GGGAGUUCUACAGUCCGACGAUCCGGACUGCUGGAGAUGGUGGAGUCCGUCAUGCCGGUGGUGGUGUGCACAUUGAGCCCCGGUACCGACAGUUCCCCCAGCUGACCAGAUCCCAGGUGUUCCAGAGCGAGUUCUUCAGCGGACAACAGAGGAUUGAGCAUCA | 0.059

Block 2
Target: Histone acetyltransferase KAT6A, winged helix 2, GST fusion (KAT6A, Homo sapiens, UniProt Q92794, residues 85-181)
Method: protein binding microarray
Form: double-stranded DNA, one strand shown
Matrix: in vitro
Tested at: not given
Notes: 8-mer, flanks averaged, mean of 2 arrays, mostly near background
Relative to: not given
Direction: higher = stronger binding
Residues (chain): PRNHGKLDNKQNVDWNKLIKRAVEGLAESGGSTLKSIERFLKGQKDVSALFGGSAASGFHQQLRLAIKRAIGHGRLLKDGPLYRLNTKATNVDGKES
Strand | E-score
TCCGTCCA | 0.0731
ACTCCTGG | -0.134
CACAGTTC | -0.144
CCTTAAGG | 0.0523
AGCTGCCA | 0.0739
CATTTCAA | -0.000835
AGGAACGC | 0.073
CCTTCGGA | 0.24
AAACAGAC | 0.0765
AACGTAAA | -0.153
ATGGGGCC | -0.133
CATAGAGC | -0.0669
AAAAGGCT | -0.108
ATAGCCAT | -0.0298
CTCCAGGA | 0.0326
CGGAGTAG | 0.128
GGATCCTA | -0.105
TAACATGA | -0.115
CCGCCGTC | 0.114
GATTTTCC | 0.15
CCTGTCTC | 0.0204
AAACGAAG | -0.0908
AACCTAGC | -0.00471

Block 3
Target: Interferon regulatory factor 5, full length, phosphomimetic (IRF5, Homo sapiens, UniProt Q13568-2, residues 1-514, S451D/S453D/S456D/S462D)
Method: protein-binding microarray
Form: double-stranded DNA, one strand shown
Matrix: in vitro
Tested at: 940 nM top
Notes: 60-bp whole probe
Added: salmon DNA 0.4 mg/ml
Relative to: random background probes
Direction: higher = stronger binding
Constant ends, left off below: GCCTAGCAC … GTCTTGATTCGCTTGACGCTGCTG
Strand | fitted relative affinity
GCCGATTCCAGTTTCGAGACGTGCTAG | 4.92 z-score
TTAGGTCCCGGTTTCGGTTAGTGCTAG | 7.81 z-score
GAAGGTTTCGGGTTTCGGGACGTGCTA | 7.95 z-score
TAAGGTCTCCTTATCCTTTAGTGCTAG | 0.312 z-score
CTCTATACCCATGTAGAGAGGTGCTAG | -0.0808 z-score
GACGGACTGCTTTTCTTGACGTGCTAG | 0.0858 z-score
ATATATATTATATATTTATGTGTGCTA | 0.345 z-score
TTAGGTATCGGCTATCGGTTAGTGCTA | 5.41 z-score
TCATGTTCCCTCATCAGACTGTGCTAG | 0.823 z-score
TTAGATATCATTTTCGATTAGTGCTAG | 1.62 z-score
GTAGGTATCGGGACTGGGTTAGTGCTA | 4.19 z-score
TTGTGTTTGTCCCTATTTAAGTGCTAG | 0.929 z-score
TTAGGTTCCCTTTTTCTTTAGTGCTAG | 1.27 z-score
TTAGGACTGGTTTTCCTTTAGTGCTAG | 0.308 z-score
GCAGATTGGGTTTCAGGGCTGTGCTAG | 0.404 z-score
GACGGTTTGGGACTGGGGACGTGCTAG | -0.499 z-score
TCAGTTTTCAATTTTTGACTGTGCTAG | 0.794 z-score
TTAGGTTCCGGTTTCGGTTCGTGCTAG | 8.86 z-score
GACGGTATCCATCTCCTGACGTGCTAG | 0.501 z-score
TTAGATATCGGGTATCGAATAGTGCTA | 1.04 z-score
GACGGTTCCGGTTTCGGGCCGTGCTAG | 4.96 z-score
CACGGACTGGACTATCGGGACGTGCTA | -0.209 z-score
TCATGGTTCTGCTTCTTACTGTGCTAG | 0.613 z-score
TCAAGTTTACCCATCTCCAGGTGCTAG | 0.194 z-score

Block 4
Target: RNA binding protein fox-1 homolog 2, RRM domain, GST-SBP tag (RBFOX2, Homo sapiens, UniProt O43251-10, residues 100-194)
Method: RNA Bind-n-Seq
Form: RNA
Matrix: in vitro
Tested at: 365 nM
Notes: natural RNA segment, single round, ends assumed
Relative to: no-protein control
Direction: higher = stronger binding
Target sequence (chain): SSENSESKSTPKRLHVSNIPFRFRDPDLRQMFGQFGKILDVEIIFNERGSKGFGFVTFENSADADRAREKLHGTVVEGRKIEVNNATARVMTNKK
Strand | RBNS enrichment (R)
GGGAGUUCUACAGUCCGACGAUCAGCCCCUCAGCAAGAAAGAAGAGUCAUUGCUGGUUCCCAGGGGCAGUCACAGAGGAUGAAAUACCACAUCAAGGCAGUGGGAACUUCCUGCGACUUCUCCUGGUCCUCCCUGGAAUUCUCGGGUGCCAA | 0.531
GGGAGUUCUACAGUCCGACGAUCAAGAAAAAUGGAAGGUAAGUUGAGUUGCUCCUUUCCCAGUUCCUAGGAAUAGGCAAGAAGCCAGUCUCCCCAGGUUGGAAGAGGAUCAUGGGCCUGGCCUAGCUCCUCCGUGGAAUUCUCGGGUGCCAA | 0.253
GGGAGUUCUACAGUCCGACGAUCCUAUGAAAACUCAUGUUUCUCUGUUUCUCUUUUCCACAAUUCCAUUUUCUUUGGCAUCUCUUUGCCCUUUCCUCUGGAGUCUUUCUUGAGUACUGAUUUCAUGUUGAAUUUGGAAUUCUCGGGUGCCAA | 0.417
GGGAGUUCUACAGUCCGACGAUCGCUACAGAAAGCAGGACUAGGAACUGGAAAUAACUUUGGGUCCUGCCUUCAUUAGGACGUUCUUUUUAGAAGCAGUUCUUCCAGCUCUGGAUCAUAGAGUGACCUUUAAUUGGAAUUCUCGGGUGCCAA | 0.208
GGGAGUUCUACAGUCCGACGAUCCUCAGGCCUGGAAGUGAAAGCCGCCUCCUUCCCGUUAUGCCCCCCAUACAGGAGCCUCGGUUUUUCAGCAAAACGCGGCCAGUCCCCUUCUCCACUGCUGCCUCCCAGCAUGGAAUUCUCGGGUGCCAA | 1.11
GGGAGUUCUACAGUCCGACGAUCCAAUUAAGUUUGAAUGAAUGCCCCUUUUAUGUAGAGUGCUGGUCCCCAGUCAUUGCUGUCUGCAAGUGAUGCGCAUUUAAGUGUUUAAUCUCCUGGGAGCAGGGCACAGGUGGAAUUCUCGGGUGCCAA | 1.46
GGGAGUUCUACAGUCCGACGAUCAUUUGCCCGUUUACAAUCCUAGACGGACUGGGCCAUCAUUAGCUAAUAGCCUUUCUCCCUUGCCAUGUUUCUGGAAUGAACCGUGUACCUAGAACCUCUCCUUGCCACAGUGGAAUUCUCGGGUGCCAA | 7.93
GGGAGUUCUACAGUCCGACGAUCGGAGACUUCAUUAUGUUAAUGAACGAGAUAAGAAGAAAAUGGCGCUCAUUGUGGCCUUGUUGAGUUAUGUUGUGUUUGUUUAACAUCUCUGAUGCUCUGUUACUAGAAUUUGGAAUUCUCGGGUGCCAA | 0.549
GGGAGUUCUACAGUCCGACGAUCUUUACAAAUGUAAAAAACAAAAAGUGUAUUAAUGUAUUUGUUCAGGAAAAGCUACAUACCGAAGGGCUUUUGUAUAUGAAUUCUGUGGUGGGGAGACCCAUUUGUAAUCUUGGAAUUCUCGGGUGCCAA | 0.507
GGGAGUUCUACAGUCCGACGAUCGUUACAAGAAUGUGGCAAUUCUAUUUGUCCAAGAGCAUUCUUACACAACUUUCUUUUGUAAAUUUUUCUUUCAUGCCAAAAAACAUGCGGGCAAUUUGUUGAUGAGGUGAUGGAAUUCUCGGGUGCCAA | 0.446
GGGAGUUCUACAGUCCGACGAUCUGGAUUUGGAAUAGAUUACAUAGGAGUAUGAAGUAUGCUGUAAAUAAAAGUACAAGCCAGUGCUUUGUCUUAGUAGUUUUAAGAAAUUAAAGCAAACAGACUUAAGUUUCUGGAAUUCUCGGGUGCCAA | 2.8
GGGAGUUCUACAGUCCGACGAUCCAGAUUUACAGAGAACUUACACUUCAUCUGUUCCACCUCUCCUGCGAUAGUCCUGGGUGCUCCACUGAUUGGAGGAUAGAGCCAGCUGUCUGACACACAAAUGGUCUUUUUGGAAUUCUCGGGUGCCAA | 0.352

Block 5
Target: CCNB1, cyclin fold, Cln2 fusion (human)
Method: yeast growth competition, sequencing
Matrix: yeast
Notes: strong parent motif
Relative to: not given
Direction: higher = stronger binding
Parent: CDC42EP1 docking peptide (human); SLVVGKLSFDSSP
Substitution | normalised enrichment score
P13A | 1.38
K6A | 1.01
L7A | -0.293
S11A | 1.52
F9A | -0.552
S1A | 1.77

For quick reference, copied from above (block 2):
Strand | E-score
AGGAACGC | 0.073
TCCGTCCA | 0.0731
ATAGCCAT | -0.0298
CCTTAAGG | 0.0523
AGCTGCCA | 0.0739
AACGTAAA | -0.153
CTCCAGGA | 0.0326
ACTCCTGG | -0.134
AAAAGGCT | -0.108
CCTGTCTC | 0.0204
TAACATGA | -0.115
